# Published values of several laboratories.
# Parts stem from different laboratories: compare values within a part only. Changes are numbered by the printed parent chain.

# Block 1
# Target: ABI1, truncated, D143A, DHFR fusion (Arabidopsis thaliana)
# Method: DHFR PCA, deep sequencing
# Medium: yeast
# Notes: methotrexate growth selection, single substitutions
# With: (+)-ABA 0.0091 µM
# Baseline: wild-type fitted maximum
# Reading: higher = stronger binding
# Starting sequence: PYL1, truncated, DHFR fusion (Arabidopsis thaliana); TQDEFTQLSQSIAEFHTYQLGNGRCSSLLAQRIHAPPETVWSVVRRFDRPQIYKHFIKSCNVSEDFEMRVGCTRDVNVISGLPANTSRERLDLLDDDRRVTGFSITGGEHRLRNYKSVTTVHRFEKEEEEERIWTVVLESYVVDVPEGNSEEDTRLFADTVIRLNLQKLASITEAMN
Change,relative binding score [%]
D65N,35.3
R111I,9.35
N165C,2.9
N177V,42.7
H55G,0.208
F5N,0.817
A175G,31.6
S104V,-4.43

# Block 2
# Organism: Saccharomyces cerevisiae
# Read-out: peptide binding
# Method: yeast competitive growth sequencing
# Molecule type: peptide
# Strain: cyclin-Cln2 fusion strain
# Tested at: concentration not given
# Notes: Cln2 background subtracted
# Reading: direction not given
Molecule,binding score
NCKKRRALDFLSRLPL,0.326
REPARRLFLFGEE,0.189
EDLLKELQKQLEE,-0.38
ALLRRLQDVANDRGSH,0.945
KRCATPVIIDEILPSK,0.336
LFVPQRKLEVSTEDVH,-0.0542
IPDRSTKPVVFSPT,-0.527
QDYERRLLRQIVIQNE,0.178

# Block 3
# Target: Sal-like protein 4, full length isoform A (SALL4, Homo sapiens, UniProt Q9UJQ4, residues 1-1053)
# Chain of UniProt Q9UJQ4 (whole entry, looked up): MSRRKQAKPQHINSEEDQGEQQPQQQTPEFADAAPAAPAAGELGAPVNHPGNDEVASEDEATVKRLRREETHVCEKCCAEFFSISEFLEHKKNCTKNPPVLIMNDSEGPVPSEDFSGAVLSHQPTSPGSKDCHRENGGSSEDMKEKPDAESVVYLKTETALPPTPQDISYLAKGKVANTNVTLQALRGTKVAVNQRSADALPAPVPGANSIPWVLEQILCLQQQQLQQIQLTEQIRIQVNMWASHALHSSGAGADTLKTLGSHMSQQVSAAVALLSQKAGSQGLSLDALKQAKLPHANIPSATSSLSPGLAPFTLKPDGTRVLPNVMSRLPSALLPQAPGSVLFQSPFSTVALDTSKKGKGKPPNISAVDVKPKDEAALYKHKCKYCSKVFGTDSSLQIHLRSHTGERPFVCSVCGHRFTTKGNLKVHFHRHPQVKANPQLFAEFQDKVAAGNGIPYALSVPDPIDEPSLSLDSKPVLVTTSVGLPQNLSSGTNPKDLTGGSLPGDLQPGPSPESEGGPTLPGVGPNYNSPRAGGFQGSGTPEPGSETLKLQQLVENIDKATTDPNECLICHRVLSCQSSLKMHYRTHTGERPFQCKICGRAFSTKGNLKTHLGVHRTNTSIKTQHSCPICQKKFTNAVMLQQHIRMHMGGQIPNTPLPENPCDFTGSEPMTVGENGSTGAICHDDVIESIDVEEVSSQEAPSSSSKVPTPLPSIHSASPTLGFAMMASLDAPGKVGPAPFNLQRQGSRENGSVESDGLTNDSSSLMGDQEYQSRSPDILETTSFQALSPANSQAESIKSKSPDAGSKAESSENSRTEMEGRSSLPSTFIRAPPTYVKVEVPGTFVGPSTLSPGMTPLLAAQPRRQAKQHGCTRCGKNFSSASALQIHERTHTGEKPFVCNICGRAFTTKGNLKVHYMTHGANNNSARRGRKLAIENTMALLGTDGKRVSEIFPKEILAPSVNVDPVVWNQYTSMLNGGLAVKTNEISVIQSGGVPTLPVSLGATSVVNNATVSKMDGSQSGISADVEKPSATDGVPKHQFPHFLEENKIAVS
# Method: universal PBM
# Molecule type: double-stranded DNA, one strand shown
# Medium: in vitro
# Tested at: 600 nM
# Notes: 8-mer, flanks averaged, mean of replicates
# Reading: higher = stronger binding
Sequence,E-score
ACAACATC,0.232
AAATTTAC,0.28
TATTAACA,0.343
ATACATCG,0.176
AGGGTCAA,-0.0418
CGTTAAAC,0.167
GCTAGTTA,0.119
GCATTGAA,0.078

# Single results of other studies
Molecule,target,assay,system,conditions,quantity,value
KELGVHMSL,"HLA class I histocompatibility antigen, C alpha chain, allele C*04:01 (Homo sapiens, UniProt P10321)",peptide-MHC binding,peptide,concentration not given,binding,inactive

# Some of these lines once more (block 1):
Change,relative binding score [%]
R111I,9.35
N165C,2.9
N177V,42.7
